Published values from different studies.
Numbered parts are unrelated; each lists some results of a single study.

Sample 1 — method: RNA Bind-n-Seq; molecule type: RNA; matrix: in vitro; concentration: 365 nM; reference: no-protein control; direction: higher = stronger binding
Target: RNA binding protein fox-1 homolog 2, RRM domain, GST-SBP tag (RBFOX2, Homo sapiens, UniProt O43251-10, residues 100-194)
Notes: natural RNA segment, single round, ends assumed
Residues (chain): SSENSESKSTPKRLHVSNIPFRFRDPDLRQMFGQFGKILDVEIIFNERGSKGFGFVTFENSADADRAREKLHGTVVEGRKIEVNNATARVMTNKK
Oligonucleotide	RBNS enrichment (R)
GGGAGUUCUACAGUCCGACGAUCUGCAGUGAUACCAACUUAUAGCAAUGAUGUACUUUAAGGGAACUACCCAACUAUGUUGUGAUAGAAGAAAGAGAAACCUUCACUUUGGCAUUUUUUUUUAAUCACUGUUUUGGAAUUCUCGGGUGCCAA	0.513
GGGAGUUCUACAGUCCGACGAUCGGGACUUGGCCCCUGCUUGACCCUGGCAGAGGUGGAUGGUGAUUGGGAUAUAGGAAAAGCAGUGGGCAGAGGCCUGACUGACCUGAUAUUCAAUCUGCACAAAGUCCAAGUGGAAUUCUCGGGUGCCAA	0.979
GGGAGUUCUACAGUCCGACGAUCCCUUUGAGUCAGUGUGCAGACCCCCUUUCAGGCCAUGCCUCUGUGAACCCUGUAUUGCUGGGGCCGGAAGGAGCCCCUGAGCCUAGCCCCUUCCCGUCUGCCCUGUGUCCUGGAAUUCUCGGGUGCCAA	0.643
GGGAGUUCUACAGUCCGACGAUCUGGAGCUCAUUGAUUAGAAGAUAACACCCAGGAAUUGUUUCCACUGGGUCCUGGCUGUCCAUAAGGAAAGUGGUAUCAGUGGCCCAGCGUAGAUGGAGAGAAAGUCAGAAUGGAAUUCUCGGGUGCCAA	2.12
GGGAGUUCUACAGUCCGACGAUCGUAUAGCCCUGGCUGUCCUGGAACUCACUCUGUAGACCAGGCUGGCCUCAAACUCAAAAAUCCACCUGCCUCUGCCUCCCAAGUGCUGGGAUUAAAGGCGUGCGCCACCAUGGAAUUCUCGGGUGCCAA	0.209
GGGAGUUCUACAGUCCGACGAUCGAUCAGUGAGGAGGUGAAUGUAUAAGUUAUGGCCUGGACCCUGCUGCAGAUGCUGUGAGAGUCUGGGGAAAGAUCACAUGGGUCGAGGGUUUCUCUACUGGUCAGGAUGCUGGAAUUCUCGGGUGCCAA	1.41
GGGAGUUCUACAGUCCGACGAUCCUGGGUUGGGGUCCCCCAGCAUCCAGACUGGAAACCUACCCAUUUUCCCCUGAGCAUCCUCUAGAUGCUGCCCCAAGGAGUUGCUGCAGUUCUGGAGCCUCAUCUGGCUGUGGAAUUCUCGGGUGCCAA	0.544
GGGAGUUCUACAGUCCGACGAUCAAUUAUAUUGGCCUCUCCUUAUGUGGUGGUUUUUUUGGUAGGUCAUAGUUCCUUAUACACAGACACCUGCAUCAUCGAAGGUCUUUUUUUCCUAAAAAAAAAAAAUGGGAUGGAAUUCUCGGGUGCCAA	0.387
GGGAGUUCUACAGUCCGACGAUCCAGGCACUAACCUGGCACCUUUUACUCCAGCUGGUAGAGCUAGAGCUAAUGUGUACAGGUGUCCUGGAGCCCCAGCUUGCUGCCUGGGGUCUUCGGGGGGAGGGGGGCUUUGGAAUUCUCGGGUGCCAA	0.578
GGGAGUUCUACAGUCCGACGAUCCUGGCAUUAUGCAGCAGCCUCACACACCUGUCCUCUCCUUCUUCAUGUCCUACAGUUCUGCUAUCACCUGACUAGAAUAGCCCUCUAGGCAACAGUGCUCAAAUGUAUGAUGGAAUUCUCGGGUGCCAA	0.474
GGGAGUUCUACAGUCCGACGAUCAUUUUUAUUUAUUAAAUAUUUGGGGUUUUGGUUUUAAAGCCAGAAUUACGGCUAGCACCUAGCAUUUCAGCAGAGGGACCAUUUUAGACCAAAAUGUACUGUUAAUGGGUUGGAAUUCUCGGGUGCCAA	0.713
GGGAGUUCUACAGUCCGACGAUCCAGCUUCAUCCCAGUGACGAUGCUGGACGUACAGAUGGUGAUGGCAAAGGUGUAGAACACAUUUUUUCAAAGACUAAAUCUAAAACCCAGAGUAAACAUCCGAUGCUCAGUGGAAUUCUCGGGUGCCAA	0.507

Sample 2 — method: protein binding microarray; molecule type: double-stranded DNA, one strand shown; matrix: in vitro; concentration: not given; reference: not given; direction: higher = stronger binding
Target: Histone acetyltransferase KAT6A, winged helix 1, GST fusion (KAT6A, Homo sapiens, UniProt Q92794, residues 1-85)
Notes: 8-mer, flanks averaged, mean of 2 arrays, mostly near background
Target sequence (chain): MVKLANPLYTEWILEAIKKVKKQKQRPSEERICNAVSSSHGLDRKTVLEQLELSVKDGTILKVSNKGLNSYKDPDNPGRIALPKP
Oligonucleotide	E-score
ACGCGTCC	0.31
ATTTCGGA	0.105
AGTTGACA	-0.235
CCCGTCGG	0.486
CTGGTCAC	-0.16
CAGGCCGG	0.127
GTTATTTA	0.0504
CCAGTCCG	0.197
ATGAGACG	0.116
GCAGATAC	-0.00268
ACACGTGA	-0.0706
GTATGCAC	-0.119

Sample 3 — method: RNA Bind-n-Seq; molecule type: RNA; matrix: in vitro; concentration: 20 nM; notes: 6-mer, flanks averaged, single round; together with: 150 mM LiCl; reference: input library; direction: higher = stronger binding
Target: TAR DNA-binding protein 43, full length, His tag (TARDBP, Homo sapiens, UniProt Q13148, residues 1-414)
Oligonucleotide	6-mer enrichment (R)
AGAACA	0.93
CAUUAU	0.962
CGCUAC	0.877
CCUCAU	0.958
GGAGCU	0.983
CGUGAU	0.915
CACAGC	0.857
CUUCCU	0.918

Sample 4 — method: Sort-seq; measured: YFP reporter; matrix: E. coli; notes: PhoQ-PhoP variant library; together with: 10 µM Mg2+; reference: high Mg2+ state; direction: higher = stronger signaling
Molecule: PhoQ, residues 284 288 289 292 302 303 SLGVVW
target	fold induction
PhoP, residues 12 14 15 18 19 TQCLL (Escherichia coli, UniProt P23836)	6.06
PhoP, residues 12 14 15 18 19 ICWRQ (Escherichia coli, UniProt P23836)	25.8
PhoP, residues 12 14 15 18 19 VHTVL (Escherichia coli, UniProt P23836)	19

For quick reference, copied from above (sample 1):
Oligonucleotide	RBNS enrichment (R)
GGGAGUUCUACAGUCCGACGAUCUGGAGCUCAUUGAUUAGAAGAUAACACCCAGGAAUUGUUUCCACUGGGUCCUGGCUGUCCAUAAGGAAAGUGGUAUCAGUGGCCCAGCGUAGAUGGAGAGAAAGUCAGAAUGGAAUUCUCGGGUGCCAA	2.12
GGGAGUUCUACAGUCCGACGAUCGUAUAGCCCUGGCUGUCCUGGAACUCACUCUGUAGACCAGGCUGGCCUCAAACUCAAAAAUCCACCUGCCUCUGCCUCCCAAGUGCUGGGAUUAAAGGCGUGCGCCACCAUGGAAUUCUCGGGUGCCAA	0.209
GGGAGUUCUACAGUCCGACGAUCGAUCAGUGAGGAGGUGAAUGUAUAAGUUAUGGCCUGGACCCUGCUGCAGAUGCUGUGAGAGUCUGGGGAAAGAUCACAUGGGUCGAGGGUUUCUCUACUGGUCAGGAUGCUGGAAUUCUCGGGUGCCAA	1.41
